Assay results from different studies.
“And” joins repeats or separate records; there may be more than shown. pIC50: −log10 of the molar value.
Cell line: TK-10

With `CCCN1CCN(c2ccc3[nH]c(-c4ccc5[nH]c(-c6ccc(OCC)c(OCC)c6)nc5c4)nc3c2)CC1` the growth percent was -0.9% (SRB; 10 µM, 48 h).
With `Cn1cncc1C1=CN(c2ncnc3[nH]cnc23)CCS1` the TGI was 95.5 µM (renal cancer).
`C#C[C@@]1(O)[C@@H](CO)O[C@@H](n2cc(Cl)c3c(N)ncnc32)[C@@H]1O` has a TGI of 0.891 µM and 1.72 µM (SRB; NCI-60 screen).
For `Cc1cc(C)n(C(=S)[S][Au][PH](CCCCCC[PH]([Au][S]C(=S)n2nc(C)cc2C)(c2ccccc2)c2ccccc2)(c2ccccc2)c2ccccc2)n1`, the log10 TGI was over -4 (cell growth, NCI-60 screen; renal cancer).
The growth percent of `CCCCN1CCN(c2ccc3[nH]c(-c4ccc5[nH]c(-c6ccc(OCC)cc6)nc5c4)nc3c2)CC1` is reported as 86.8% (SRB; 10 µM, 48 h).
`O=C(Nc1nnc2[nH]c(=S)[nH]c(-c3ccc(Cl)cc3)c1-2)c1ccccc1` has a cell growth of 112% (SRB; 10 µM, NCI60 single-dose screen; reference: untreated).
With `CCCN1CCN(c2ccc3[nH]c(-c4ccc5[nH]c(-c6cc(OC)c(OC)c(OC)c6)nc5c4)nc3c2)CC1` the growth percent was 125% (SRB; 10 µM, 48 h).
`O=C(Nc1nnc2n3c(=S)[nH][nH]c3nc(-c3ccc(Cl)cc3)c1-2)c1ccccc1` has a cell growth of 119% (SRB; 10 µM, NCI60 single-dose screen; reference: untreated).
For `C#C[C@@]1(O)[C@@H](CO)O[C@@H](n2cc(I)c3c(N)ncnc32)[C@@H]1O`, the TGI was 5.51 µM (SRB; NCI-60 screen).
The cell growth of `CSc1nc(-c2ccc(Cl)cc2)c2c(NC(=O)c3ccccc3)nnc-2[nH]1` is reported as 117% (SRB; 10 µM, NCI60 single-dose screen; reference: untreated).
For `C#C[C@@]1(O)[C@@H](CO)O[C@@H](n2cc(Br)c3c(N)ncnc32)[C@@H]1O`, the TGI was 85.8 µM and > 100 µM (SRB; NCI-60 screen).
For `O=C(Nc1nnc2n3c(nc(-c4ccc(Cl)cc4)c1-2)SCC3=O)c1ccccc1`, the cell growth was 153% (SRB; 10 µM, NCI60 single-dose screen; reference: untreated).
`O=C1NC(=NCc2cccs2)S/C1=C\c1ccc2ncccc2c1` has a pIC50 of under 5.00 (MTS; NCI60 panel).
`COc1ccc(OC)c(-c2nc3ccc(-c4nc5ccc(N6CCN(C)CC6)cc5[nH]4)cc3[nH]2)c1` gave a growth percent of 112% (SRB; 10 µM, 48 h).
With `Cc1cc(=O)[nH]n1-c1nc(-c2ccc(Cl)cc2)c2c(NC(=O)c3ccccc3)nnc-2[nH]1` the cell growth was 109% (SRB; 10 µM, NCI60 single-dose screen; reference: untreated).

Some of these lines once more:
With `Cc1cc(=O)[nH]n1-c1nc(-c2ccc(Cl)cc2)c2c(NC(=O)c3ccccc3)nnc-2[nH]1` the cell growth was 109% (SRB; 10 µM, NCI60 single-dose screen; reference: untreated).
